Published values collected from several papers.
Each numbered part is a random draw from the data of one study; scales do not carry over between parts. Values joined by “and” are separate records of one study, mostly repeats; a detail may differ.

Block 1
SMILES: C[C@@H]1CN(c2ccc(-c3cc(C(=O)NCCOCCOCCOCCOCCOCCOCCNC(=O)/C=C/c4[nH]cc(C(=O)N[C@@H](CC(N)=O)c5ccc(F)c(Cl)c5)c4-c4ccc(Cl)cc4F)ccc3F)cc2NC(=O)c2ccc(F)cc2C(F)(F)F)C[C@H](C)N1C
Target: DDB1- and CUL4-associated factor 1 (DCAF1, Homo sapiens, UniProt Q9Y4B6)
Sequence of UniProt Q9Y4B6 (whole entry, looked up): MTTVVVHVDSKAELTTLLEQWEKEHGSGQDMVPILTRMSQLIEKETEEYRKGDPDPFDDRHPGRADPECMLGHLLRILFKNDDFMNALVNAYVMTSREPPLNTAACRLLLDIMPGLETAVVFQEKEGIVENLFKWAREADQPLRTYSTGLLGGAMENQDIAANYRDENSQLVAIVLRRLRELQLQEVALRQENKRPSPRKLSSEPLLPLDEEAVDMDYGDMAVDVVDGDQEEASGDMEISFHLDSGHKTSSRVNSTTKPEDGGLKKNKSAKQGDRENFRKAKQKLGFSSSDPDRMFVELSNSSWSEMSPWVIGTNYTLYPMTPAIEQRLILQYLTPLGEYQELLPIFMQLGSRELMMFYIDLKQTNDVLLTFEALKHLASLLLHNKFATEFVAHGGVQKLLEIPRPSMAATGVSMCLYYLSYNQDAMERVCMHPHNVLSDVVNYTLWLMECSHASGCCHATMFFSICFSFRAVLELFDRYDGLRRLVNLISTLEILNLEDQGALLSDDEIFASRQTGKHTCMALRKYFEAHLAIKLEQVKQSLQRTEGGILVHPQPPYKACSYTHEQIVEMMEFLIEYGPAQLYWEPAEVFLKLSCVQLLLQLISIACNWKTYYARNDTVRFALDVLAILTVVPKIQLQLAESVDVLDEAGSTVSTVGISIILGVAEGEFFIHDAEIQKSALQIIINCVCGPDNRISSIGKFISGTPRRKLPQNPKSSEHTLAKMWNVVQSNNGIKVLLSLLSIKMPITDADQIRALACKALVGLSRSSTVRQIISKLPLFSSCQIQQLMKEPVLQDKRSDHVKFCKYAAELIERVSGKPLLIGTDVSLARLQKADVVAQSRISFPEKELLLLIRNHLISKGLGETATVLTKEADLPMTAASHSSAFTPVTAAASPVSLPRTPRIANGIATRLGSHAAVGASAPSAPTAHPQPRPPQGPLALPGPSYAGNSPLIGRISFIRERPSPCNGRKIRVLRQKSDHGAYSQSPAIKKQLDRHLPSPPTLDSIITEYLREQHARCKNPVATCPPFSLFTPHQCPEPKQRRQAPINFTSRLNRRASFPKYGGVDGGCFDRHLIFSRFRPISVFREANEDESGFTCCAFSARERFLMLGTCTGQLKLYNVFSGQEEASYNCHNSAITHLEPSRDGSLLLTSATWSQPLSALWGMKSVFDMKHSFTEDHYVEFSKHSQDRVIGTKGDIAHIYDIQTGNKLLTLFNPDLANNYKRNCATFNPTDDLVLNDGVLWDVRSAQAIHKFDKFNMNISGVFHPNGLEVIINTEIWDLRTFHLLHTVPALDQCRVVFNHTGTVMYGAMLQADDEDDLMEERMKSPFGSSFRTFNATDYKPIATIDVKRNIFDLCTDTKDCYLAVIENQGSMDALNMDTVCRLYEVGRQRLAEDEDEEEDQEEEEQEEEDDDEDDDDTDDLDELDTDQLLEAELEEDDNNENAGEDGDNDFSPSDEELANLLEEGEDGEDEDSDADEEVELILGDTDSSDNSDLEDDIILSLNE
Read-out: thermal unfolding
Technique: differential scanning fluorimetry
Tested at: 5.5 µM
Direction: higher = more unfolded
| temperature | SYPRO Orange fluorescence [a.u.] |
| --- | --- |
| 48 °C | 16600 |
| 63.61 °C | 54100 |
| 75.81 °C | 43100 |
| 44.8 °C | 14500 |
| 48.4 °C | 16900 |
| 70.21 °C | 48100 |

Mixed results
PKMYT1: Membrane-associated tyrosine- and threonine-specific cdc2-inhibitory kinase (PKMYT1, Homo sapiens, UniProt Q99640)
Sequence of UniProt Q99640 (whole entry, looked up): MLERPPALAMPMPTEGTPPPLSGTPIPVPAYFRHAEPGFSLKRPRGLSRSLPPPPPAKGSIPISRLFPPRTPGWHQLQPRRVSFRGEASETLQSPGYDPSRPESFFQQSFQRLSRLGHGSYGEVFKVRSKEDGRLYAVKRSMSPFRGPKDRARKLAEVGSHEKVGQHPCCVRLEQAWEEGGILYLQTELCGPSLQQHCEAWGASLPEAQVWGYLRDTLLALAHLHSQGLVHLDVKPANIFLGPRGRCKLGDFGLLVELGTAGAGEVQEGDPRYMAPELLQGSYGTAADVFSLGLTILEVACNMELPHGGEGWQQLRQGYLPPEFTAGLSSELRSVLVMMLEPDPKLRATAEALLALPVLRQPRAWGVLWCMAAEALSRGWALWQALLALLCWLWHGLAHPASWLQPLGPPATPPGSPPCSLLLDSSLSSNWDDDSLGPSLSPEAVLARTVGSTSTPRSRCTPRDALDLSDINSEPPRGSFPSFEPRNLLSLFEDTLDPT
| Structure (SMILES) | tested on | assay | system | conditions | how to read | quantity | value |
| --- | --- | --- | --- | --- | --- | --- | --- |
| Cc1ncc(-c2cc3c(C#N)c(-c4c(C)ccc(O)c4C)cnc3[nH]2)cn1 | Caco-2 | permeability | – | 2 µM, 2 h, pH 7.4 | – | recovery | 48.1% |
| COCC1CC2C(CCC3(C)C(O)CCC23)c2ccc(O)cc21 (stereo not drawn) | PANC-1 | DNA microarray, measured: KIF20A | – | concentration not given, higher dose arm | relative to: untreated cells | log2 fold change | -1.9 and -1.85 and -1.82 and -1.86 |
| Cc1ccc(O)c(C)c1-c1cnc2[nH]c(-c3cnc(N4CCC(CCN5CCN(c6ccc(N7CCC(=O)NC7=O)cc6F)CC5)CC4)nc3)cc2c1C#N | PKMYT1 | binding, HTRF | – | 1000 nM | – | inhibition | 99.4% and 99.1% |
| Cc1ncsc1-c1ccc(C(CO)NC(=O)C2CC(O)CN2C(=O)C(C(C)C)n2cc(-c3ccc(COc4c(-c5c(C)c(F)cc6[nH]ncc56)c(C5CC5)cc5c(N6CC7CC6CN7)nc(OC6CCOCC6)nc45)cc3)nn2)cc1 (stereo not drawn) | – | qRT-PCR, measured: MYC | mouse, PK-59 xenograft, tumour | 10 mg/kg, 2 h, unit not given | relative to: vehicle | mRNA level | 0.786 and 0.705 and 0.484 |
| Cc1nc(C)c(C=[N+]([O-])C(C)(C)C)nc1C | – | – | primary cerebellar granule neurons, rat | 100 µM, 2 h, added: MPP+ | relative to: control | ATP content | 47.3% and 48.9% and 48% |
| Cc1ccc(O)c(C)c1-c1cnc2[nH]c(-c3cnc(N4CCC(CCN5CCN(c6ccc7c(c6)C(=O)N(C6CCC(=O)NC6=O)C7=O)CC5)CC4)nc3)cc2c1C#N (racemic) | PKMYT1 | binding, HTRF | – | 1000 nM | – | inhibition | 99.2% and 99.7% |

Repeated from above (mixed results):
| Structure (SMILES) | tested on | assay | system | conditions | how to read | quantity | value |
| --- | --- | --- | --- | --- | --- | --- | --- |
| Cc1nc(C)c(C=[N+]([O-])C(C)(C)C)nc1C | – | – | primary cerebellar granule neurons, rat | 100 µM, 2 h, added: MPP+ | relative to: control | ATP content | 47.3% and 48.9% and 48% |
